# Experimental data collected from several papers.
# Each line is one published result; not all experiments were run side by side. ± marks the error that the study gave.
# GPR84: G-protein coupled receptor 84 (GPR84, Homo sapiens, UniProt Q9NQS5)
# Chain of UniProt Q9NQS5 (whole entry, looked up): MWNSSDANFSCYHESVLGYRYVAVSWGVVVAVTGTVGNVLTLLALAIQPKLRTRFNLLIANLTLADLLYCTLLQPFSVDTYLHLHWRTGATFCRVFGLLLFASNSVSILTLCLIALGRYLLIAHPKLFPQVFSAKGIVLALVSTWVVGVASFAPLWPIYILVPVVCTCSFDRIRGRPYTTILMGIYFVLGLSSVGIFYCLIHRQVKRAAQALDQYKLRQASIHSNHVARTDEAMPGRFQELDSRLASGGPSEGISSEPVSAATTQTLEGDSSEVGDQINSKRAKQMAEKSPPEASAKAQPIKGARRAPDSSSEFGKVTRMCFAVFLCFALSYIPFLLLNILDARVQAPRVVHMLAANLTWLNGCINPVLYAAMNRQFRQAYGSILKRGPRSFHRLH
# ESR2: Estrogen receptor beta (ESR2, Homo sapiens, UniProt Q92731)
# Chain of UniProt Q92731 (whole entry, looked up): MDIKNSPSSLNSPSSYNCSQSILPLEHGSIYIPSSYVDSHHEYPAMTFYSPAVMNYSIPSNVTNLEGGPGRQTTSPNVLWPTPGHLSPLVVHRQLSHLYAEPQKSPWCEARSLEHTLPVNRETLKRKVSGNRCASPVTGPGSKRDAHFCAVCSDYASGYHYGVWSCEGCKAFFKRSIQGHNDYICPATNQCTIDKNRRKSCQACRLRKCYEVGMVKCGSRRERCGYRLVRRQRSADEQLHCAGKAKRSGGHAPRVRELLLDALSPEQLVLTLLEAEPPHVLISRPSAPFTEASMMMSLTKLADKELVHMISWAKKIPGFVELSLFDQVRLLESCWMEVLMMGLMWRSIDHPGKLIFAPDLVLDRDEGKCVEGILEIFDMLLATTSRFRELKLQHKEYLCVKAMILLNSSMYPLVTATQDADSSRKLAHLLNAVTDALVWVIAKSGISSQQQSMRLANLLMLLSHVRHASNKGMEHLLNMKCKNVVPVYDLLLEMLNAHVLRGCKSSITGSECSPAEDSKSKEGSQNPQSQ
# VCP: Transitional endoplasmic reticulum ATPase (VCP, Homo sapiens, UniProt P55072)
# Chain of UniProt P55072 (whole entry, looked up): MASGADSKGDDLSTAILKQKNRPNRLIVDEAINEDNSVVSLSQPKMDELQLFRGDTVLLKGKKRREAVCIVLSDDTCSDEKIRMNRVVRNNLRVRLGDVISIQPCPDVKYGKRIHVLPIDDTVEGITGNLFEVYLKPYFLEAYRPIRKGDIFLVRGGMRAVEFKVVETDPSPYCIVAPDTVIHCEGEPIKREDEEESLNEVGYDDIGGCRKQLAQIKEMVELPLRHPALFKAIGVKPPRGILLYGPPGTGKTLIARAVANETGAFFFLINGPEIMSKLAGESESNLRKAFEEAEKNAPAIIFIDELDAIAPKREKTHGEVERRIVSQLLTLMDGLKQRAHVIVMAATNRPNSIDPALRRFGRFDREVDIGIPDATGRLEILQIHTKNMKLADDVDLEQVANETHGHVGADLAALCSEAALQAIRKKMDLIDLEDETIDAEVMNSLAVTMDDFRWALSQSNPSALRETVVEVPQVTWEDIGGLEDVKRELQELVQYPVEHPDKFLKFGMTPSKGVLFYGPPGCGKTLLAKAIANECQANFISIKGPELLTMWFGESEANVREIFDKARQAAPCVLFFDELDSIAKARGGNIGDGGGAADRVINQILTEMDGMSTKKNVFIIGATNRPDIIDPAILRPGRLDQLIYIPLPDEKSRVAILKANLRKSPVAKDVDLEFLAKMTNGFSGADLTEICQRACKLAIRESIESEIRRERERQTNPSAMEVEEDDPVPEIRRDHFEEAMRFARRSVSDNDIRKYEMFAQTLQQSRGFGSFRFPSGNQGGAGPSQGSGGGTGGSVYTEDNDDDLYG
# BRAP ZnF-UBD domain: BRCA1-associated protein, ZnF-UBD domain (BRAP, Homo sapiens, UniProt Q7Z569)
# Chain of UniProt Q7Z569 (whole entry, looked up): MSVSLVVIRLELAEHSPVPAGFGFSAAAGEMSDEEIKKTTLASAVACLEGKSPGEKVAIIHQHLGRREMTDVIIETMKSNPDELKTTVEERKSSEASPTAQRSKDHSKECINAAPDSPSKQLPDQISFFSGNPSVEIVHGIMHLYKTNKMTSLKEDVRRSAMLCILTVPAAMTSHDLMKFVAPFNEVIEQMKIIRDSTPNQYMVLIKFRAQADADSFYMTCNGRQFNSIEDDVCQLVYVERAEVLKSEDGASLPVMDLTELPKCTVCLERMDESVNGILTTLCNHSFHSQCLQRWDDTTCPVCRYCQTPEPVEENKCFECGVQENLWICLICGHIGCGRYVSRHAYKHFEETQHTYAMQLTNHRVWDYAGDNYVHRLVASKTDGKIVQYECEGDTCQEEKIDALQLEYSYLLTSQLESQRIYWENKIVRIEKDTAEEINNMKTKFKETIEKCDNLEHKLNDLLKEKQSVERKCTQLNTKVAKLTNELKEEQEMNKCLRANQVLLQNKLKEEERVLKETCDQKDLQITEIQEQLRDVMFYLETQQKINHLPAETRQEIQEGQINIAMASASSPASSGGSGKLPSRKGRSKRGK
# Chain of UniProt Q99523 (whole entry, looked up): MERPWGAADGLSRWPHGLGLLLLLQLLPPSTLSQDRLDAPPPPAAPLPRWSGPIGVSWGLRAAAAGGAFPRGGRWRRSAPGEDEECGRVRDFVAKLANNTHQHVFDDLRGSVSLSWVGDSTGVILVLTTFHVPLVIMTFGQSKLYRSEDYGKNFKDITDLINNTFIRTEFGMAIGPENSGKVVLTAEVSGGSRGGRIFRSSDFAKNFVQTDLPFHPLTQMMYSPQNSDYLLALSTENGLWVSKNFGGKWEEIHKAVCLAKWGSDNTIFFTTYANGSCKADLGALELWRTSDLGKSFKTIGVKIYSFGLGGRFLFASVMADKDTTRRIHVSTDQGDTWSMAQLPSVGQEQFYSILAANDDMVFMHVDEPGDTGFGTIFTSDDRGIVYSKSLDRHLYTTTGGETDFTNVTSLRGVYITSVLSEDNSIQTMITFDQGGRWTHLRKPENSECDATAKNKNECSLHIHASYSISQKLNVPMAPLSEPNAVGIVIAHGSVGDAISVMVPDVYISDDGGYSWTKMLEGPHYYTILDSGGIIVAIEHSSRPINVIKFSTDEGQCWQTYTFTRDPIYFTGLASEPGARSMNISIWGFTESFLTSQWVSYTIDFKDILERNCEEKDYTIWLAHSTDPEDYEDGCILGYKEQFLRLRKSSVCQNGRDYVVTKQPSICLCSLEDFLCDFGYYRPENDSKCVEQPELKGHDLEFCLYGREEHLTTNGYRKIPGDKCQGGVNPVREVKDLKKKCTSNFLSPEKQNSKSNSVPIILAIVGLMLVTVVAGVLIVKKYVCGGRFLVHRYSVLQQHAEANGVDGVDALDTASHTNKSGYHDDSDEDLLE
# Chain of UniProt Q96GD4 (whole entry, looked up): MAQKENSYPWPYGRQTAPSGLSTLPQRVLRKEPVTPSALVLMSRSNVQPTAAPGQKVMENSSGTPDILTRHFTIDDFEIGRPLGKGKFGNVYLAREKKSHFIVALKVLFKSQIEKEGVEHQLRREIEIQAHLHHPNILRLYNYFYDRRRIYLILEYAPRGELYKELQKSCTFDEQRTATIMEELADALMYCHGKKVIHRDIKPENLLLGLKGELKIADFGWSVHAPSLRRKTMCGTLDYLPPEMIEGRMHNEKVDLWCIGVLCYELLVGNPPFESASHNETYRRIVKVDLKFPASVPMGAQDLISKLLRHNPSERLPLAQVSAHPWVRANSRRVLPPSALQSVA
# Chain of UniProt P25098 (whole entry, looked up): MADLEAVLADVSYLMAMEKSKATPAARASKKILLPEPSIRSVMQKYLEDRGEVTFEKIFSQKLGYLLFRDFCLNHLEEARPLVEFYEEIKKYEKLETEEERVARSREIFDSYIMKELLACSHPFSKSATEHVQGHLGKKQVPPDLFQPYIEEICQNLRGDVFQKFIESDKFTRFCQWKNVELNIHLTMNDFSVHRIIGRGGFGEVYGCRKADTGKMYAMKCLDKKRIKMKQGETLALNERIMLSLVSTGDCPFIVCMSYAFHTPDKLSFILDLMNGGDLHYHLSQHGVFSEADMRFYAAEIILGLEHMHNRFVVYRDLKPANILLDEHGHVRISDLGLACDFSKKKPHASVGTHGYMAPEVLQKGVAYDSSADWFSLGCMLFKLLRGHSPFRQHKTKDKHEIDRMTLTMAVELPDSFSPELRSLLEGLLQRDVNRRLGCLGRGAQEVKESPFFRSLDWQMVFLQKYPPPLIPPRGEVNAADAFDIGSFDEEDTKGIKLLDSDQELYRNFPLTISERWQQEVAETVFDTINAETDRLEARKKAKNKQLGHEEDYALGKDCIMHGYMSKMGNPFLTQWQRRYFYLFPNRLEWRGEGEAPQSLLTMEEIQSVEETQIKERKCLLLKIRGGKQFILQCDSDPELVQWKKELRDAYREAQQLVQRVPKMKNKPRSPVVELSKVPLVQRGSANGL
# Chain of UniProt Q92633 (whole entry, unmodified, looked up): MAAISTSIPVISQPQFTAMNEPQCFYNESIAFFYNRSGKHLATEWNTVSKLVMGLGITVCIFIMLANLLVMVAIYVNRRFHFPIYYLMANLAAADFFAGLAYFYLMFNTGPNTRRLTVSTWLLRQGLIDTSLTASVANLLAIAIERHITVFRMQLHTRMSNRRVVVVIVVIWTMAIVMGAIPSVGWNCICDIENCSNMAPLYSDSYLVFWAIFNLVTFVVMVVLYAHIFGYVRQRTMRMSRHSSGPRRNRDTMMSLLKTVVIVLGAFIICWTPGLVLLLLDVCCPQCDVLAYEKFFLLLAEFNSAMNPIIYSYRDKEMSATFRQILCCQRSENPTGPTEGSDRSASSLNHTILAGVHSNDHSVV
SMILES,target,test,test system,setting,quantity,value
O=c1cc(N2CCN(c3ccc(Cl)cc3)CC2)[nH]c(=O)[nH]1,GPR84,"cAMP level, agonist",,,EC50,0.153 ± 0.01 µM
C[C@@H]1O[C@@H](Oc2cc(O)c3c(c2)O[C@H](c2ccc(O)c(O)c2)[C@@H](O)C3=O)[C@H](O)[C@H](O)[C@H]1O,ESR2,"array formation, agonist",GFP-ERβ PRL-HeLa,1 h,EC50,1.04 µM
Clc1ccc(CNc2nc(-c3ccccc3)nc3ccccc23)cc1,VCP,"enzyme activity, inhibitor",,,IC50,> 30 µM
O=C(O)CCC1=Nc2cccc3cccc(c23)N1,BRAP ZnF-UBD domain,,,,Kd,> 1000 µM
CC[C@@H]1[C@H](F)C(=O)N[C@@H]1COc1nccc2cc(C(N)=O)c(OC)cc12,"Beta-adrenergic receptor kinase 1 (GRK2, Homo sapiens, UniProt P25098)","ATP probe binding, KiNativ profiling, measured: BARK1 Lys2 probe site",THP-1 cell lysate,,IC50,> 5 µM
C=C1CN(S(=O)(=O)c2ccc(C)cc2)CCCN(CCc2ccccc2)CCCN(S(=O)(=O)c2ccc(C)cc2)C1,"Sortilin (Homo sapiens, UniProt Q99523)","protein expression, flow cytometry",HEK-293T expressing sortilin-GFP,24 h,DC50,1 ± 0.3 µM
O=C(O)CCc1cnccn1,BRAP ZnF-UBD domain,,,,Kd,> 1000 µM
Cc1ccc(-c2nc(NCc3ccccc3)c3ccccc3n2)cc1,VCP,"enzyme activity, inhibitor",,,IC50,5.7 ± 0.7 µM
Cc1c(O)c(C)c2c(c1O)C(=O)C[C@@H](c1ccc(O)cc1)O2,ESR2,"array formation, agonist",GFP-ERβ PRL-HeLa,1 h,EC50,6.9 µM
COc1ccc(Nc2nc(Nc3cccc(Cl)c3)nc3ccccc23)cc1,VCP,"enzyme activity, inhibitor",,,IC50,34 ± 14 µM
COc1ccc(C=C2SC(=O)N(C(C)C(=O)O)C2=O)cc1 (stereo not drawn),BRAP ZnF-UBD domain,,,,Kd,> 1000 µM
COc1ccc(CCNc2cc(=O)[nH]c(=O)[nH]2)cc1,GPR84,agonist,,,EC50,0.755 ± 0.373 µM
COc1cc(O)c2c(=O)cc(-c3ccc(O)cc3)oc2c1,ESR2,"array formation, agonist",GFP-ERβ PRL-HeLa,1 h,EC50,1.21 µM
COc1ccc(CNc2nc(-c3ccc(OC)cc3)nc3ccccc23)cc1,VCP,"enzyme activity, inhibitor",,,IC50,13 ± 4 µM
O=c1cc(NCCCOc2ccccc2)[nH]c(=O)[nH]1,GPR84,agonist,,,EC50,0.182 µM
CN(c1ccccc1)c1nc(NCc2ccccc2)c2ccccc2n1,VCP,"enzyme activity, inhibitor",,,IC50,> 30 µM
CCCCCCCCCNc1cc(=O)[nH]c(=O)[nH]1,GPR84,"cAMP level, agonist",human cells,,EC50,0.0299 ± 0.01 µM
O=C(COc1cccc2c1C(=O)N(C1CCC(=O)NC1=O)C2=O)NCCCCCC(=O)N1CCN(c2ccc(Nc3nc(NC4CCCCC4)c4[nH]cnc4n3)cc2)CC1 (stereo not drawn),"Aurora kinase B (AURKB, Homo sapiens, UniProt Q96GD4)","degrader, western blot",IMR-32,,DC50,0.0061 µM
CCc1ccc(CCNc2cc(=O)[nH]c(=O)[nH]2)cc1,GPR84,cAMP,,,EC50,0.00427 µM
COc1c(O[C@@H]2O[C@H](CO)[C@@H](O)[C@H](O)[C@H]2O)cc2occ(-c3ccc(O)cc3)c(=O)c2c1O,ESR2,"array formation, agonist",GFP-ERβ PRL-HeLa,1 h,EC50,0.119 µM
O=c1cc(NCCCc2ccccc2)[nH]c(=O)[nH]1,GPR84,"cAMP level, agonist",human cells,,EC50,1.73 ± 0.6 µM
CCc1oc2c([C@H](CO)N(CC)CC)cccc2c1C,"Lysophosphatidic acid receptor 1 (LPAR1, Homo sapiens, UniProt Q92633, Q125A)","Gi activation, agonist, NanoBiT G-protein dissociation",HEK293T,Q125A mutant,EC50,0.00661 µM
COc1ccc(-c2coc3cc(O)ccc3c2=O)cc1,ESR2,"array formation, agonist",GFP-ERβ PRL-HeLa,1 h,EC50,2.21 µM
O=C(O)CCn1nnc(-c2ccccc2)n1,BRAP ZnF-UBD domain,,,,Kd,> 1000 µM
O=c1c(O)c(-c2ccc(O)c(O)c2)oc2cc(O)cc(O)c12,ESR2,"array formation, agonist",GFP-ERβ PRL-HeLa,1 h,EC50,0.314 µM
c1ccc(CNc2nc(N3CCc4ccccc4C3)nc3ccccc23)cc1,VCP,"enzyme activity, inhibitor",,,IC50,15 ± 3 µM
O=C(O)CCc1nc2ncccn2n1,BRAP ZnF-UBD domain,,,,Kd,> 1000 µM
O=c1cc(NCCc2cccc(F)c2)[nH]c(=O)[nH]1,GPR84,agonist,,,EC50,3.09 µM
O=C(/C=C/c1ccc(O)cc1)c1c(O)cc(O)cc1O,ESR2,"array formation, agonist",GFP-ERβ PRL-HeLa,1 h,EC50,0.428 µM
Cc1ccc(-n2nc(C)c3conc3c2=O)cc1,NMDA receptor,"binding, radioligand displacement",,added: [3H]MK-801,Ki,> 10 µM
O=C(O)CCn1cccn1,BRAP ZnF-UBD domain,,,,Kd,74.4 µM
COc1ccc(-c2nc(NCc3ccccc3)c3ccccc3n2)cc1,VCP,"enzyme activity, inhibitor",,,IC50,1.6 ± 0.3 µM
Oc1ccc([C@H]2COc3cc(O)ccc3C2)cc1,ESR2,"array formation, agonist",GFP-ERβ PRL-HeLa,1 h,EC50,0.0141 µM
CN(Cc1ccccc1)c1nc(-c2ccccc2F)nc2ccccc12,VCP,"enzyme activity, inhibitor",,,IC50,25 ± 4 µM
O=C(O)Cn1cnc2ccccc2c1=O,BRAP ZnF-UBD domain,,,,Kd,> 1000 µM
CCCCCCN(C)c1cc(=O)[nH]c(=O)[nH]1,GPR84,cAMP,,,EC50,0.112 µM

# Some of these lines once more:
SMILES,target,test,test system,setting,quantity,value
O=c1cc(N2CCN(c3ccc(Cl)cc3)CC2)[nH]c(=O)[nH]1,GPR84,"cAMP level, agonist",,,EC50,0.153 ± 0.01 µM
Cc1c(O)c(C)c2c(c1O)C(=O)C[C@@H](c1ccc(O)cc1)O2,ESR2,"array formation, agonist",GFP-ERβ PRL-HeLa,1 h,EC50,6.9 µM
O=c1c(O)c(-c2ccc(O)c(O)c2)oc2cc(O)cc(O)c12,ESR2,"array formation, agonist",GFP-ERβ PRL-HeLa,1 h,EC50,0.314 µM
